Results of several laboratories.
Every numbered part comes from another study and shows a few of its results, in no order. Numbers after ± are the reported error.

Sample 1
Cell line: HEK-293T/ACE2
Observed: pseudovirus infection
Organism: VSV pseudotyped with SARS-CoV-2 spike
Concentration: 10 µM
Time: 16 h
Reference: vehicle-treated
Structure (SMILES)	GFP-positive cells [%]
CCCc1nc2c(C)cc(-c3nc4ccccc4n3C)cc2n1Cc1ccc(-c2ccccc2C(=O)O)cc1	61.9
COc1ccc(Cl)cc1C(=O)NCCc1ccc(S(=O)(=O)NC(=O)NC2CCCCC2)cc1	65.2
CCC(=O)O[C@]1(C(=O)CCl)[C@@H](C)C[C@H]2[C@@H]3CCC4=CC(=O)C=C[C@]4(C)[C@@]3(F)[C@@H](O)C[C@@]21C	84.6

Sample 2
Target: Replicase polyprotein 1ab, main protease (rep, Severe acute respiratory syndrome coronavirus 2, UniProt P0DTD1)
Observed: enzyme activity
Action: inhibitor
Concentration: 20 µM
Setting: hit confirmation
SMILES	inhibition [%]
O=C(O)[C@H]1O[C@@H](Oc2cc3oc(-c4ccccc4)cc(=O)c3c(O)c2O)[C@H](O)[C@@H](O)[C@@H]1O	54
Cc1cc(-c2cc(O)ccc2Cl)cc2nnc(Nc3ccc(OCCN4CCCC4)cc3)nc12	26.7
Cc1ccnc2c1CCCC2C(N)=S (stereo not drawn)	-4.7
CO[C@@H]1[C@H](OC(=O)NC(=O)CCl)CC[C@]2(CO2)[C@H]1[C@@]1(C)O[C@@H]1CC=C(C)C	54.1

Sample 3
Target: Replicase polyprotein 1ab, nsp13 helicase (rep, Severe acute respiratory syndrome coronavirus 2, UniProt P0DTD1)
Observed: helicase activity
Action: inhibitor
Method: DTT high-content helicase
Organism: SARS-CoV-2
Concentration: 20 µM
SMILES	inhibition [%]
CC(=O)[O][Pt]([NH2])([Cl])([Cl])([NH]C1CCCCC1)[O]C(C)=O	-2.87
O=Nc1ccc(O)c2ncccc12	-12.4
CCn1c(N)c(C(=O)NC)c(=O)c2ccc(C#C[C@@](C)(O)COC)nc21	1.64
Cc1nc(C#Cc2ccnc(Cl)c2)c(C)n1-c1ccc(OC(F)(F)F)cc1	-1.97
O=c1[nH]nc(Sc2ncc([N+](=O)[O-])s2)n1-c1ccc2c(c1)OCCO2	-5.95
CC(C)N[C@@H]1CCn2c(=O)[nH]c3cccc(c32)[C@H]1O	11.2
O=[N+]([O-])C=Cc1ccc2c(c1)OCO2	-9.73
O=C1C=CC(=O)C2=C1C1c3ccccc3C2c2ccccc21	-15
CC(=O)OC[C@H]1O[C@@H]([S-])[C@H](OC(C)=O)[C@@H](OC(C)=O)[C@@H]1OC(C)=O.CCP(CC)CC.[Au+]	-5.15
O=C1C(c2ccccn2)=[N+]([O-])c2ccccc21	3.81
CCN(CC)C(=S)S	-1.37
O=C(/C=C/c1ccc2ccccc2n1)c1ccncc1	-7.03
CN=c1nc(-c2ccccc2)n(-c2ccccc2)s1	-3.61
O=C1C=Cc2cc(Br)ccc2C1=O	-12.4
Cc1ccc(-n2sc(=O)n(Cc3ccc(F)cc3)c2=O)cc1	-7.2

Other studies, line by line
Spike glycoprotein: Spike glycoprotein (Severe acute respiratory syndrome coronavirus 2, UniProt P0DTC2)
SMILES	tested on	assay	test system	conditions	quantity	value
Cc1cn([C@H]2C[C@H](O)[C@@H](COP(=O)(O)OP(=O)(O)OP(=O)(O)O)O2)c(=O)[nH]c1=O	Gag-Pol polyprotein, reverse transcriptase (gag-pol, Human immunodeficiency virus type 1 group M subtype B, UniProt P04585, K653A)	nucleotide misinsertion, steady-state kinetics	–	K66A mutant RT, with: opposite template T	Km	604 ± 729 µM
CC(C)(C)[C@H](NC(=O)C(F)(F)F)C(=O)N1C[C@H]2[C@@H]([C@H]1C(=O)N[C@H](C#N)C[C@@H]1CCNC1=O)C2(C)C	Norovirus	viral replication	HG23 replicon cells	96 h	EC90	> 10 µM
CC(C)=CCc1cc2c(cc1O)O[C@H](c1ccc(O)cc1)CC2=O	Spike glycoprotein	binding	–	–	Kd	56 µM
N#Cc1ccc(N2N=C3c4ccccc4CCC3C2C2CCCC2)cc1Cl (stereo not drawn)	Replicase polyprotein 1ab, methyltransferase (rep, Severe acute respiratory syndrome coronavirus 2, UniProt P0DTD1)	enzyme activity, inhibitor	–	–	IC50	> 100 µM
Cn1c(C(=O)Nc2ccc3c(c2)OCCO3)cc2c(=O)n3ccccc3nc21	Severe acute respiratory syndrome coronavirus 2	viral replication, inhibitor, qPCR	Vero C1008	–	EC90	8.95 µM
CC(C)=CCC/C(C)=C/CC/C(C)=C/CC/C(C)=C/CC1=C(C)C(=O)c2ccccc2C1=O	Spike glycoprotein	binding, BLI	–	–	kon	9.75 M⁻¹ s⁻¹
Cn1c(C(=O)Nc2ccc(Cl)cc2)cc2c(=O)n3ccccc3nc21	Severe acute respiratory syndrome coronavirus 2	viral replication, inhibitor, qPCR	Vero C1008	–	EC90	1.74 µM
CN[C@@H]1[C@H](O[C@@H]2OC[C@@H](O)[C@H](O)[C@H]2O)[C@@H](O)[C@H](O[C@H]2c3cc(C)c(C(=O)N[C@H](C)C(=O)O)c(O)c3-c3c(cc4c(c3O)C(=O)c3cc(OC)cc(O)c3C4=O)[C@@H]2O)O[C@@H]1C	transmissible gastroenteritis virus	viral cytopathicity, MTT	ST, Purdue	72 h	EC50	4.7 ± 0.8 µM
